Experimental data collected from several papers.
Every numbered part comes from another study and shows a few of its results, in no order.

Study 1
Target: Sal-like protein 4, full length isoform A (SALL4, Homo sapiens, UniProt Q9UJQ4, residues 1-1053)
Sequence of UniProt Q9UJQ4 (whole entry, looked up): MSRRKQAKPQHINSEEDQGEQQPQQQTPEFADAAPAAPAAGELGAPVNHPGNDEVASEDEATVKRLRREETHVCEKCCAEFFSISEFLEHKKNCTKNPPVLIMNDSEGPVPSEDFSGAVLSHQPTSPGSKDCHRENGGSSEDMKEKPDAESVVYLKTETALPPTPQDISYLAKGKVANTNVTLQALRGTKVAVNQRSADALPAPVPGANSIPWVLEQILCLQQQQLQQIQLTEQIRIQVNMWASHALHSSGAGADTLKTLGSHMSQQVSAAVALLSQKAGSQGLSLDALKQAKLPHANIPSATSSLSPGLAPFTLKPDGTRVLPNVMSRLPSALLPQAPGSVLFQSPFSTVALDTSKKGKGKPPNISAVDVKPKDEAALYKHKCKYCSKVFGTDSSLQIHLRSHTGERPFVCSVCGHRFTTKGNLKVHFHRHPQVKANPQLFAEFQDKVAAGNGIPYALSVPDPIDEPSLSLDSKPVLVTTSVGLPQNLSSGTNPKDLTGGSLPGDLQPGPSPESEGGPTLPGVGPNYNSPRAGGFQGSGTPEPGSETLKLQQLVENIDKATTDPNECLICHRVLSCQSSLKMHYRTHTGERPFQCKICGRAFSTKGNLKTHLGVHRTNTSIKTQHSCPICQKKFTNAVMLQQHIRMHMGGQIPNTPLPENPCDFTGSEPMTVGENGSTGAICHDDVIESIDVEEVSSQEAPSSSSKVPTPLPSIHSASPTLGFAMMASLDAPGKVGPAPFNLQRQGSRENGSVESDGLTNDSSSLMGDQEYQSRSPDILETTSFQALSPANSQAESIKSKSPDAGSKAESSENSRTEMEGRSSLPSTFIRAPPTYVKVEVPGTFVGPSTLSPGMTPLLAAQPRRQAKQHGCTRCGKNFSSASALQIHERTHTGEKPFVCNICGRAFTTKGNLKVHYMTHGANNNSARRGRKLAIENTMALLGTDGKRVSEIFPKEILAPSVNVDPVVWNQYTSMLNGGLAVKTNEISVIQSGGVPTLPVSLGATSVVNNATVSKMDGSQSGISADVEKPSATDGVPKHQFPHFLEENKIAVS
Method: universal PBM
Form: double-stranded DNA, one strand shown
Sample: in vitro
Tested at: 600 nM
Notes: 8-mer, flanks averaged, mean of replicates
Reading: higher = stronger binding
Oligonucleotide	E-score
ATTATCCG	0.188
CCTCCGAC	-0.266
TATGAGGA	0.223
AGATAATG	0.289
GCTTGTTA	0.0768
ACTGTCCC	-0.14
ATACTGAA	0.242
AATTTCAT	0.265
GCTCCGAA	-0.0323
AAGACCTT	0.0349
CCTCTTTA	0.0548
CCCCGAAA	-0.0436
AACGGACC	-0.263
CAAACCCG	-0.215
AATGGACT	0.0315
ATCGACAG	0.0479
GTTTCACA	0.127
GTGTGCGA	-0.134
GCCACTAC	-0.235
ACCCCCAA	-0.1
CCGCCACG	-0.174
GTGAGCTA	0.0816
ACTGTTCT	0.0774
GCCGAGCC	-0.186

Study 2
Target: RNA binding protein fox-1 homolog 2, RRM domain, GST-SBP tag (RBFOX2, Homo sapiens, UniProt O43251-10, residues 100-194)
Method: RNA Bind-n-Seq
Form: RNA
Sample: in vitro
Tested at: 365 nM
Notes: natural RNA segment, single round, ends assumed
Relative to: no-protein control
Reading: higher = stronger binding
All sequences stand within: GGGAGUUCUACAGUCCGACGAUC … UGGAAUUCUCGGGUGCCAA
Residues (chain): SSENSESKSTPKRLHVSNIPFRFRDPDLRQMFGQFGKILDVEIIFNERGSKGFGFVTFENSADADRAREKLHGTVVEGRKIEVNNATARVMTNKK
Oligonucleotide	RBNS enrichment (R)
UACCCACCAGGUUGUACUUAACGCAAUCAGAAGGGGUUCAUGGCAAUAUAACAGUUAAUGAACUUGGAGUUUAAAUUGUGUACAUUUUUAAAUUGUAAGAUUUUUACUGU	0.312
UUUUUUAUAUCUCACACUUCACACCAGUGCAUUACACUAACUUGUUCACUGGAUUGUCUGGGAUGACUUGGGCUCAUAUCCACAAUACUUGGUAUAAGGUAGUAGAUUGU	0.313
CUGUACCGACACCCCUACAGGAGAAGCUCUGGGACUGGGGCAGCAGCAAGGCGCCCAUGCCACACACCGUCUCUCGAGGAAACGCGGUUCAGCGAUUCUUUGACUGCGGA	0.302
UGGGAUGUAGGAUUACCUAGCUAUGGUAAAGGAUUGCCACAGCAAACUGUGACACUGUGUAAUGAGCACUGUUCCCAGCGGCAAUUACAGAGAAAACGAGUGUAAAUUAU	0.235
AAGGGAAGGUUUGUUUUUUUUUCUCCCCAUUUUCCCCCAUUCUGUCUUUCUUUUGGUGACUUACACCACAUGUAAUGACGCUAUGACUAAUUCUGCUCCCAAGCCCUUGU	0.361
UUAUAUGAAGUUGCAUUAUUGUGGACUUGGCUGUCUUGUGAUGAAUUUUUUUCAUAUGUAUUCUGUGCCAUACUAUUGUUAAAAUGAACUGUUGCUAUUGUGAGAUGGAU	1.18
AAGUCACUGGCAAUACGGGUUUAAAGCAGGUACUUAGAUCACGGUUUUCUCUGUAAGAAAAUAUGGCCGUCACCCCCGCCCACCAAAAAAAAAUGAUUUGCUCUUUGUGA	0.669
GGAAAGAAAGUUGAAGACUGUUCUCUGGCUUCUCCUACCUAGGUACAGCAGACUGUAGUACCUCACAGCCCACUUGAGCCCUGGCUUCUCUCAGCAUCACAGAUGAAACU	1.15

Study 3
Target: RING finger protein unkempt homolog, zinc fingers 1-6, GST-SBP tag (UNK, Homo sapiens, UniProt Q9C0B0, residues 30-357)
Method: RNA Bind-n-Seq
Form: RNA
Sample: in vitro
Tested at: not given
Notes: RNA with constant flanks, ends assumed
Relative to: input RNA pool
Reading: higher = stronger binding
All sequences stand within: GGGAGUUCUACAGUCCGACGAUC … CAACAGAGGAUUGAGCAUCA
Residues (chain): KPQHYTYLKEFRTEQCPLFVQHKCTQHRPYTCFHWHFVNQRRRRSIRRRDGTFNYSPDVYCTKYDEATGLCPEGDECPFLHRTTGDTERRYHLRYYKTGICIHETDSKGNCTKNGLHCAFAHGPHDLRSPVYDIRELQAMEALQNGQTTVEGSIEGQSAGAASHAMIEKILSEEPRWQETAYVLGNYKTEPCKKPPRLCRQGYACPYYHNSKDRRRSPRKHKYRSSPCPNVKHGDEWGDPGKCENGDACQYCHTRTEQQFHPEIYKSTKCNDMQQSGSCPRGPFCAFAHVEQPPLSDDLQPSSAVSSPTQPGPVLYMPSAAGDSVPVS
Oligonucleotide	bound/input enrichment [ratio]
UGUGAACAGAAAAGAGGCAAAGAUAAUAAAGCUAUUAUUGCAUCAAAUAUCAUGUACACCGCCGGUCAAUACCCACGUUUUUUGAGAGCUCACUGGAAAUUUCUGAAGACUGUAGUUAAC	0.576
AAAUUCAAAGGCCCCUUCACAGAUGUAGUCACUACAAAUCUUAAAUUGCAAAAUCCAUCGGACCGAAAAGUGUGUUUCAAAGUGAAGACUACAGCACCUCGCCGGUACUGUGUGCGGCCC	0.358
GGAUUCAGGAACAUCAUCGCAGAUCCUGUCACCUUCAAGACCAAAUCGAGCUAUGUUGCCUCCGCUACAUUGCAAGCCUACACCUCUAUGCAUCUAUUUUUCCAAUUCAAGACAACAUCU	0.429
CAGAUGGUCACCAGCUCUCAGAGCUGCACACAGCUGCUCUAGGGGAAAUGACCCAGAGCUCCGCUCACUGUAGAGGAAUGUCCUUGGCGGAAUAGGAGAUAAGAGAAAACUCCAAUCUGA	0.0608
GAGUUUCCAGACAAGGUUUUUGCUGAGAAGUGGAAUGAAAAUGUUCAGUAUCUCUCAGAAGACCGAAGUGUGCAAGAAGUACUACAGAAGCAUUUCAAUAUCAGCAAAAACCUGCGGUCA	0.0878
UUCUGAUAAUUCUAGAGCCUGUUACCAUAGAAAGGUAUUUCUUCAAUGGCUGGUUGCCGUCCGUUCAUGUUUUUCAAUCAAUUUGCAAAUGUAUUUGUUGCUGUAUAGUGAUUGUUUUGC	1.36
CUCGGCACCGGCACGCUUUACAUCGCGGAGAGCCGCCUGUCCUGGUUAGAUGGUUCGGGAUCCGGAUUCUCACUGGAAUACCCCACCAUUAGUUUACAUGCGGUGUCCAGGGAUCCAAAC	0.477
AAAUGACCUUUAACUUUUCUAAAAAUGUGAAGUUUUGUACUUACAUAUCAUCUAAAGUAUUACCGCAUUUUUAAGUGUACUUAGUUUGAUGCCACUUUUAGUGUUUUGUUGCUUUUGUCU	1.18

Study 4
Target: Interferon regulatory factor 3, full length, phosphomimetic (IRF3, Homo sapiens, UniProt Q14653, residues 1-427, S386D/S396D/S398D/S402D/T404D/S405D)
Method: protein-binding microarray
Form: double-stranded DNA, one strand shown
Sample: in vitro
Tested at: 2540 nM top
Notes: 60-bp whole probe
With: salmon DNA 0.4 mg/ml
Relative to: random background probes
Reading: higher = stronger binding
All sequences stand within: GCCTAGCAC … GTCTTGATTCGCTTGACGCTGCTG
Residues (chain): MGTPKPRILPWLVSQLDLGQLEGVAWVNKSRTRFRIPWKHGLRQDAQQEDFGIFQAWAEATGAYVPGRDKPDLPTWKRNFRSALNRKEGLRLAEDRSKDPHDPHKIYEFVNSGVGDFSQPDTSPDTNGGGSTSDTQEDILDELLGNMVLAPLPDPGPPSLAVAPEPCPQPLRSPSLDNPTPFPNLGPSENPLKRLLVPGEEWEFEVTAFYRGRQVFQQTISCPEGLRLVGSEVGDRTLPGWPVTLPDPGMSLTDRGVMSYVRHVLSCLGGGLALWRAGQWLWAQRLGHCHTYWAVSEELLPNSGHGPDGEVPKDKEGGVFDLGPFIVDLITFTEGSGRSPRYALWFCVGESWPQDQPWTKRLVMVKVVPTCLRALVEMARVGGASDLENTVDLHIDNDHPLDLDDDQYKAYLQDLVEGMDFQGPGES
Oligonucleotide	fitted relative affinity
AACGAACTGGGGACTGGAGACGTGCTA	-0.588 z-score
GACGGTTTCGGGTTTCGGGCCGTGCTA	5.44 z-score
ATAGAACTGGGGACTGGATTAGTGCTA	-0.722 z-score
TTAGGTTCCCTTTGCCTTTAGTGCTAG	4.85 z-score
TGAGGTATCGACTTTCGGTTAGTGCTA	1.8 z-score
TCACTCCTCTCTCTTTCACTGTGCTAG	0.789 z-score
CAGAGCCTCAGGCCTCACACAGTGCTA	-0.75 z-score
TCAAGTTTTGAGCTCTGACTGTGCTAG	-0.233 z-score
GACGATTTCGGGACTGGAGATGTGCTA	1.87 z-score
TCAACCATCTAGTTCTGACTGTGCTAG	0.611 z-score
TTAGGTTTCGACACTGGGATAGTGCTA	2.75 z-score
GACGATATCAGACTGGAGTCGTGCTAG	0.417 z-score
GACGGTTTCGGGCTCGGGACGTGCTAG	3.67 z-score
GGAGTTTCCACCCTTCTCTCGTGCTAG	3.43 z-score
TGCACTCTTTACATGGGTTTGTGCTAG	0.391 z-score
TTAGGTTTCGGACTGGATTAGTGCTAG	4.38 z-score
GACGGTCTCGGTAGCGGGACGTGCTAG	0.261 z-score
GACGGTCTCGGTCTCGGGAGGTGCTAG	1.44 z-score
GACGGTTCCGGTTTCTGGACGTGCTAG	5 z-score

Repeated from above (study 4):
Oligonucleotide	fitted relative affinity
TCAACCATCTAGTTCTGACTGTGCTAG	0.611 z-score
AACGAACTGGGGACTGGAGACGTGCTA	-0.588 z-score
GACGGTCTCGGTCTCGGGAGGTGCTAG	1.44 z-score
CAGAGCCTCAGGCCTCACACAGTGCTA	-0.75 z-score
GACGATATCAGACTGGAGTCGTGCTAG	0.417 z-score
GACGGTTCCGGTTTCTGGACGTGCTAG	5 z-score
GGAGTTTCCACCCTTCTCTCGTGCTAG	3.43 z-score
ATAGAACTGGGGACTGGATTAGTGCTA	-0.722 z-score
